# Results pooled from the literature.
# Each line is one published result; not all experiments were run side by side. Numbers after ± are the reported error.
# XIAP BIR3: E3 ubiquitin-protein ligase XIAP, BIR3 (XIAP, Homo sapiens, UniProt P98170)
# UniProt P98170, sequence (whole entry, unmodified, looked up): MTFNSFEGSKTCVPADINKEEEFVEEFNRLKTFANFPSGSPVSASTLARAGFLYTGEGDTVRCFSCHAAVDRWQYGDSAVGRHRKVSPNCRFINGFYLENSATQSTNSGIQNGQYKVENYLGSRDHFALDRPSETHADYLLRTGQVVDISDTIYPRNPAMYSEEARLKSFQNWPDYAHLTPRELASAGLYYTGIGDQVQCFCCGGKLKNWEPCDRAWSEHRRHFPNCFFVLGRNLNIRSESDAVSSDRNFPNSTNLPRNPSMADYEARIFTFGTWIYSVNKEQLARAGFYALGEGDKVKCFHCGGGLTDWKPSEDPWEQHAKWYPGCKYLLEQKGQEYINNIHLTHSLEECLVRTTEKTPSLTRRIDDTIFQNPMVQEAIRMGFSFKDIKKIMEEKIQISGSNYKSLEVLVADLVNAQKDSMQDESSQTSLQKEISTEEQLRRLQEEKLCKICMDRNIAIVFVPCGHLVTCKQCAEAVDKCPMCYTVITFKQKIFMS
# XIAP BIR1 domain: E3 ubiquitin-protein ligase XIAP, BIR1 domain (XIAP, Homo sapiens, UniProt P98170)
Structure (SMILES),target,read-out,method,temperature,quantity,result
CC(C)[C@H](NC(=O)[C@H](C)NCC1CC1)C(=O)N1CCC[C@H]1C(=O)N[C@@H](Cc1ccccc1)C(N)=O,XIAP BIR3,ligand displacement,,,IC50,1500 nM
N[C@H]1CCCCNC(=O)[C@H](Cc2ccccc2)NC(=O)[C@@H]2CCCN2C(=O)[C@@H](N)CCCCNC(=O)[C@H](Cc2ccccc2)NC(=O)[C@@H]2CCCN2C1=O,XIAP BIR3,ligand displacement,FP,,Ki,27 µM
CN[C@@H](C)C(=O)N[C@H]1CN(C(=O)Cc2ccccc2)CC[C@H]2CC[C@@H](C(=O)NCc3cccc(Br)c3)N2C1=O,XIAP BIR3,ligand displacement,FP,,Ki,1.05 µM
Cc1ccc(C(=O)Nc2ccc(S(=O)(=O)O)c3cccc(S(=O)(=O)O)c23)cc1NC(=O)c1cccc([N+](=O)[O-])c1,"E3 ubiquitin-protein ligase XIAP, BIR1 domain (XIAP, Homo sapiens, UniProt P98170, D71A)",,microscale thermophoresis,,Kd,0.537 ± 0.06 mM
CN[C@@H](C)C(=O)N[C@@H](CCCCN)C(=O)N1CCC[C@H]1C(=O)N[C@@H](Cc1ccccc1)C(=O)O,"E3 ubiquitin-protein ligase XIAP, BIR2 (XIAP, Homo sapiens, UniProt P98170)",ligand displacement,FP,,Ki,11.7 µM
CN[C@@H](C)C(=O)N[C@H]1CN(C(=O)Cc2ccccc2)CC[C@H]2CC[C@@H](C(=O)NCc3ccc(C(C)(C)C)cc3)N2C1=O,XIAP BIR3,ligand displacement,FP,,Ki,185 µM
CCN[C@@H](C)C(=O)N[C@H](C(=O)N1CCC[C@H]1C(=O)N[C@@H](Cc1ccccc1)C(N)=O)C(C)C,XIAP BIR3,ligand displacement,,,IC50,4000 nM
CN[C@@H](C)C(=O)N[C@H]1CN(C(=O)Cc2ccccc2)CC[C@H]2CC[C@@H](C(=O)NCc3ccc(C(N)=O)cc3)N2C1=O,XIAP BIR3,ligand displacement,FP,,Ki,65.5 µM
CCOC(=S)Nc1cccc(C(=O)Nc2cc(C(=O)Nc3ccc(S(=O)(=O)O)c4cccc(S(=O)(=O)O)c34)ccc2C)c1,XIAP BIR1 domain,,microscale thermophoresis,24 °C,Kd,6.81 ± 2 mM
CC(C)[C@@H](C(=O)N1CCC[C@H]1C(=O)N[C@@H](Cc1ccccc1)C(N)=O)N(C)C(=O)[C@H](C)N,XIAP BIR3,ligand displacement,,,IC50,> 1600 nM
O=C(Nc1cccc(C(=O)Nc2ccc(S(=O)(=O)O)c3cc(S(=O)(=O)O)cc(S(=O)(=O)O)c23)c1)Nc1cccc(C(=O)Nc2ccc(S(=O)(=O)O)c3cc(S(=O)(=O)O)cc(S(=O)(=O)O)c23)c1,"E3 ubiquitin-protein ligase XIAP, BIR1 domain (XIAP, Homo sapiens, UniProt P98170, R62S)",,microscale thermophoresis,,Kd,1.15 ± 0.202 mM
CCc1ccc(CNC(=O)[C@@H]2CC[C@@H]3CCN(C(=O)Cc4ccccc4)C[C@H](NC(=O)[C@H](C)NC)C(=O)N32)cc1,XIAP BIR3,ligand displacement,FP,,Ki,2.32 µM
O=C(Nc1ccc(S(=O)(=O)O)c2cccc(S(=O)(=O)O)c12)c1cccc([N+](=O)[O-])c1,XIAP BIR1 domain,,microscale thermophoresis,24 °C,Kd,8.19 ± 1.8 mM
CC(C)=CCCC1=C[C@H](c2c(O)cc3c(c2O)C(=O)C[C@@H](c2ccc(O)cc2O)O3)[C@@H](C(=O)c2ccc(O)cc2O)[C@H](c2ccc(O)cc2O)C1,"XIAP (Homo sapiens, UniProt P98170)",ligand displacement,FP,,Ki,34.3 µM

# Excerpt of the above:
Structure (SMILES),target,read-out,method,temperature,quantity,result
Cc1ccc(C(=O)Nc2ccc(S(=O)(=O)O)c3cccc(S(=O)(=O)O)c23)cc1NC(=O)c1cccc([N+](=O)[O-])c1,"E3 ubiquitin-protein ligase XIAP, BIR1 domain (XIAP, Homo sapiens, UniProt P98170, D71A)",,microscale thermophoresis,,Kd,0.537 ± 0.06 mM
